# Measurements of several laboratories.
# Lines come from different studies, so protocols differ. “And” joins repeats or separate records; there may be more than shown. Numbers after ± are the reported error.
Structure (SMILES),test,system,setting,how to read,endpoint,result
CN(C)C(CNC(=O)Nc1cc(C(F)(F)F)ccc1N1CCOCC1)c1ccncc1 (stereo not drawn),,"mouse, serum","intraperitoneal, 240 mg/kg single dose",,creatine kinase,8840 U/L
CC(C)C[C@@H](NC(=O)[C@H](NC(=O)[C@H]1CCCN1)[C@H](C)O)C(=O)N[C@H](Cc1c[nH]cn1)C(=O)N[C@@H](C(=O)N[C@H](Cc1c[nH]cn1)C(=O)N[C@H](CC(N)=O)C(=O)N[C@H](CCCNC(=N)N)C(=O)N[C@H](CCCNC(=N)N)C(=O)N[C@H](CCCNC(=N)N)C(=O)N[C@H](CCCNC(=N)N)C(=O)N[C@H](CCCNC(=N)N)C(N)=O)[C@H](C)O,,Beagle dog,"oral, 20 or 50 mg/kg single, 3 and 30 mg/kg daily, 3 months",,tolerability,not toxic
CC[C@H](C)[C@@H]1NC(=O)[C@H](CCCCN)NC(=O)[C@H](CCCCN)NC(=O)[C@H](Cc2ccc(O)cc2)NC(=O)[C@H](CC(C)C)NC(=O)[C@@H]2CCCN2C(=O)[C@H](C)NC(=O)CNC(=O)CNC(=O)[C@H](CO)NC(=O)CNC(=O)CNC(=O)[C@H](CCCNC(=N)N)NC(=O)[C@H](CCC(=O)O)NC(=O)[C@H](CC(C)C)NC(=O)[C@H](Cc2c[nH]cn2)NC(=O)[C@H](CCCCN)NC(=O)[C@H](CCCCN)NC(=O)[C@H]([C@@H](C)CC)NC(=O)[C@H]([C@@H](C)CC)NC(=O)[C@H](CCCCN)NC(=O)[C@H](CCCCN)NC(=O)[C@H](Cc2ccc(O)cc2)NC(=O)[C@H](CC(C)C)NC(=O)[C@@H]2CCCN2C(=O)CNC(=O)CNC(=O)[C@@H](NC(=O)CN)CSSC[C@@H](C(N)=O)NC(=O)[C@H](Cc2c[nH]cn2)NC(=O)[C@H](CCCCN)NC(=O)[C@H](CCCCN)NC(=O)[C@H]([C@@H](C)CC)NC1=O,,25% human serum,"50 µM, 24 h",reference: 0 h control,remaining intact peptide,0%
C=Cc1cc(O)cc2nc(-c3ccc(O)c([76Br])c3)oc12,,"female C57BL/6 mouse, uterus","3 h, high dose",,tissue uptake,0.09 ± 0.02 %ID/g
O=C([O][Ti+2][O]C(=O)c1ccc(P(c2ccccc2)c2ccccc2)cc1)c1ccc(P(c2ccccc2)c2ccccc2)cc1.[Cl][Au].[Cl][Au].c1cc[cH-]c1.c1cc[cH-]c1,,C57BL/6 mice,7 days,,MTD,10 mg/kg/day
O=c1cc(-c2ccccc2)oc2c(Br)c(O)c(O)c(O)c12,,"C57BL/6 mouse, plasma","oral, 150 mg/kg, single dose",,MRT(0-inf),9.3 h
COc1cc(NC(=O)C(=O)c2c(C)n(Cc3ccc(Cl)cc3)c3ccc(C)cc23)ccn1,,"male cynomolgus monkey, plasma","oral, 10 mg/kg",,Tmax,2 h and 4 h
CCCCCCCC(=O)OC[C@H](NC(=O)[C@H](CO)NC(=O)CN)C(=O)N[C@@H](Cc1ccccc1)C(=O)N[C@@H](CC(C)C)C(=O)N[C@@H](CO)C(=O)N1CCC[C@H]1C(=O)N[C@@H](CCC(=O)O)C(=O)N[C@@H](Cc1cnc[nH]1)C(=O)N[C@@H](CCC(N)=O)C(=O)N[C@@H](CCCNC(=N)N)C(=O)N[C@H](C(=O)N[C@@H](CCC(N)=O)C(=O)N[C@@H](CCC(N)=O)C(=O)N[C@@H](CCCNC(=N)N)C(=O)N[C@@H](CCCCN)C(=O)N[C@@H](CCC(=O)O)C(=O)N[C@@H](CO)C(=O)N[C@@H](CCCCN)C(=O)N[C@@H](CCCCN)C(=O)N1CCC[C@H]1C(=O)N1CCC[C@H]1C(=O)N[C@@H](C)C(=O)N[C@@H](CCCCN)C(=O)N[C@@H](CC(C)C)C(=O)N[C@@H](CCC(N)=O)C(=O)N1CCC[C@H]1C(=O)N[C@@H](CCCNC(=N)N)C(=O)O)C(C)C,,"human, plasma","intravenous infusion, 5 µg/kg/h",reference: baseline,peak concentration fold increase,594 fold
C#Cc1c(F)ccc2cc(O)cc(-c3ncc4c(N5CC6CCC(C5)N6C(=O)OCCCCC)nc(OC[C@@]56CCCN5C[C@H](F)C6)nc4c3F)c12,,mouse liver microsomes,"60 min, with: NADPH",,parent drug release,not detected
CC(C)C[C@H](NC(=O)[C@H](CCCCN)NC(=O)[C@H](CCC(=O)O)NC(=O)[C@H](C)NC(=O)[C@@H](NC(=O)[C@H](CCCCN)NC(=O)[C@H](CC(=O)O)NC(=O)[C@H](Cc1ccc(O)cc1)NC(=O)[C@H](Cc1ccccc1)NC(=O)[C@H](C)NC(=O)[C@H](CCCCN)NC(=O)[C@H](CC(C)C)NC(=O)[C@H](Cc1c[nH]c2ccccc12)NC(=O)[C@@H](N)CC(=O)O)C(C)C)C(=O)N[C@@H](CCCCN)C(=O)N[C@@H](CCC(=O)O)C(=O)N[C@@H](C)C(=O)N[C@@H](Cc1ccccc1)C(=O)N1CCC[C@H]1C(=O)N[C@@H](CC(=O)O)C(=O)N[C@@H](Cc1c[nH]c2ccccc12)C(=O)N[C@@H](C)C(=O)N[C@@H](CCCCN)C(=O)N[C@@H](C)C(=O)N[C@@H](C)C(=O)N[C@@H](Cc1ccc(O)cc1)C(=O)N[C@@H](CC(=O)O)C(=O)N[C@@H](CCCCN)C(=O)N[C@@H](C)C(=O)N[C@@H](C)C(=O)N[C@@H](CCC(=O)O)C(=O)N[C@@H](CCCCN)C(=O)N[C@@H](C)C(=O)N[C@@H](CCCCN)C(=O)N[C@@H](CCC(=O)O)C(=O)N[C@@H](C)C(=O)N[C@@H](C)C(=O)O,,"cynomolgus monkey female, plasma","intravenous infusion, 75 mg/kg every other day, day 27",,Tmax,0 h
CC(C)[C@@H]1NC(=O)[C@H](Cc2ccccc2)NC(=O)[C@H](Cc2ccc(O)cc2)NC(=O)CCSSC[C@@H](C(=O)N2CCC[C@H]2C(=O)N[C@H](CCCNC(=N)N)C(=O)NCC(N)=O)NC(=O)[C@H](CCC(N)=O)NC1=O,,Wistar rat,"intravenous, 100 µg/kg single dose, 72 h",,body weight,226 ± 6.1 g
[2H]C([2H])([2H])C([2H])([2H])C([2H])([2H])OC(C(=O)OC1CCNCC1)(c1ccccc1)c1ccccc1,,"healthy Japanese male subjects, plasma","oral, 18 mg once daily, day 1, fed, mean",,Cmax,34.3 ng/mL
COc1ccc(F)cc1S(=O)(=O)Nc1cnc2c(c1)C(=O)NCCO2,,"male cynomolgus monkey, plasma","intravenous, 0.3 mg/kg, single dose",,Vd,0.221 L/kg
[3H]c1sc(C)nc1C=C(C)C1CC2C(CCCC(C)C(O)C(C)C(=O)C(C)(C)C(O)CC(=O)O1)N2CCO (stereo not drawn),LC-MS/MS,"CD2F1 mice tumour-bearing, heart","intravenous, 2.2 nmol/kg, 2 h",,tissue concentration,930 ± 130 ng/g
CCCC[C@H]1C(=O)N(C)[C@@H](CCCC)C(=O)N[C@@H](CCCNC(=O)CN2CCN(CC(=O)O)CCN(CC(=O)O)CCN(CC(=O)O)CC2)C(=O)N[C@H](C(=O)NCC(N)=O)CSCC(=O)N[C@@H](Cc2ccc(O)cc2)C(=O)N(C)[C@@H](C)C(=O)N[C@@H](CC(N)=O)C(=O)N2CCC[C@H]2C(=O)N[C@@H](Cc2c[nH]cn2)C(=O)N[C@@H](CC(C)C)C(=O)N(C)CC(=O)N[C@@H](Cc2c[nH]c3ccccc23)C(=O)N[C@@H](CO)C(=O)N[C@@H](Cc2c[nH]c3ccccc23)C(=O)N1C [gallium-68 labelled],static PET,"NOD/SCID mice, CHO-hPD-L1 xenograft, CHO-hPD-L1 tumour","intravenous, 1 h post injection",,tumour to muscle ratio,6.49 ± 0.91
CCc1c2c(nc3ccc(OC4OC(C(=O)O)C(O)C(O)C4O)cc13)-c1cc3c(c(=O)n1C2)COC(=O)C3(O)CC (stereo not drawn),,"human patients, plasma","intravenous, 32 mg/m^2 of parent drug",,Cmax,38 ng/mL
CSCC[C@H](NC(=O)CNC(=O)[C@H](CC(=O)O)NC(=O)[C@@H](NC(=O)[C@@H](NC(=O)[C@@H](NC(=O)CNC(=O)[C@H](CCC(N)=O)NC(=O)[C@H](CCSC)NC(=O)[C@H](CC(=O)O)NC(=O)[C@H](C)NC(=O)[C@H](C)NC(=O)[C@@H](NC(=O)[C@H](CO)NC(=O)[C@@H](N)CC(C)C)[C@@H](C)O)C(C)C)C(C)C)[C@@H](C)O)C(=O)N[C@@H](C)C(=O)N[C@@H](CO)C(=O)NCC(=O)N[C@@H](CC(C)C)C(=O)N[C@@H](CC(=O)O)C(=O)N[C@@H](CCCCN)C(=O)N[C@@H](CC(=O)O)C(=O)N[C@@H](Cc1ccc(O)cc1)C(=O)N[C@@H](CC(C)C)C(=O)N[C@@H](CCCCN)C(=O)N1CCC[C@H]1C(=O)N[C@@H](CC(=O)O)C(=O)N[C@@H](CC(=O)O)C(=O)O,,p53-positive advanced solid tumour patients,dose not given,reference: all events,probably drug-related adverse events,8%
CC[C@H](C)[C@H](NC(=O)[C@H](Cc1ccccc1)NC(=O)[C@H](CC(=O)O)NC(=O)[C@H](CN)NC(=O)[C@H](Cc1ccccc1)NC(=O)[C@H](Cc1ccccc1)NC(=O)[C@H](CCCCN)NC(=O)[C@H](CCN)NC(=O)[C@H](CC(C)C)NC(=O)[C@H](CCCNC(=N)N)NC(=O)[C@H](CCSC)NC(=O)[C@H](C)N)C(=O)N[C@@H](CC(C)C)C(=O)N[C@@H](CCC(N)=O)C(=O)N[C@@H](CCCNC(=N)N)C(=O)N[C@@H](CCCCN)C(=O)N[C@@H](CCCCN)C(=O)O,circular dichroism,20% TFE in PBS,"200 µM, pH 7.4, 25 °C",,helicity,18.3%
CN(C)c1ccc(OC(=O)NC2CCCCC2)cc1-c1ccccc1,,rat plasma,,,log hydrolysis rate constant,-2.86
CC(C)(C)c1ccc(COc2cc3c(=O)c(C(=O)NCCNCCO)cn(Cc4ccccc4)c3cc2Cl)cc1,metabolic stability,"male rat, liver microsomes",1 µM,,microsomal CLint,< 11.6 µL/min/mg
CCCCCCCCCCCCC(=O)O.O=C1CCCC2C3CCCN4CCCC(CN12)C34 (stereo not drawn),electrical conductivity,water,293.15 K,,standard entropy of aggregation,108 J/(mol·K)
C[C@H]1C(OC(=O)C(Cl)Cl)O[C@@H]2O[C@@]3(C)CC[C@H]4[C@H](C)CCC1[C@@]24OO3 (stereo partly drawn),,Tg(fli1:EGFP) zebrafish embryos,"25 µg/mL, up to 48 hpf",,dead embryos,0 count
CC(C)[C@H](NC(=O)CNC(=O)[C@@H]1CCCN1C(=O)[C@H](Cc1ccccc1)NC(=O)CNC(=O)[C@@H](NC(=O)CNC(=O)[C@@H]1CCCN1C(=O)[C@H](Cc1ccccc1)NC(=O)CNC(=O)[C@@H](NC(=O)CNC(=O)[C@@H]1CCCN1C(=O)[C@H](Cc1ccccc1)NC(=O)CNC(=O)[C@@H](NC(=O)CNC(=O)[C@@H]1CCCN1C(=O)[C@H](Cc1ccccc1)NC(=O)CNC(=O)[C@@H](NC(=O)CNC(=O)[C@@H]1CCCN1C(=O)[C@H](Cc1ccccc1)NC(=O)CN(CC(=O)N[C@@H](Cc1ccccc1)C(=O)N1CCC[C@H]1C(=O)NCC(=O)N[C@H](C(=O)NCC(=O)N[C@@H](Cc1ccccc1)C(=O)N1CCC[C@H]1C(=O)NCC(=O)N[C@H](C(=O)NCC(=O)N[C@@H](Cc1ccccc1)C(=O)N1CCC[C@H]1C(=O)NCC(=O)N[C@H](C(=O)NCC(=O)N[C@@H](Cc1ccccc1)C(=O)N1CCC[C@H]1C(=O)NCC(=O)N[C@H](C(=O)NCC(=O)N[C@@H](Cc1ccccc1)C(=O)N1CCC[C@H]1C(=O)NCC(=O)N[C@H](C(=O)NCC(N)=O)C(C)C)C(C)C)C(C)C)C(C)C)C(C)C)CC(=O)N[C@@H](Cc1ccccc1)C(=O)N1CCC[C@H]1C(=O)NCC(=O)N[C@H](C(=O)NCC(=O)N[C@@H](Cc1ccccc1)C(=O)N1CCC[C@H]1C(=O)NCC(=O)N[C@H](C(=O)NCC(=O)N[C@@H](Cc1ccccc1)C(=O)N1CCC[C@H]1C(=O)NCC(=O)N[C@H](C(=O)NCC(=O)N[C@@H](Cc1ccccc1)C(=O)N1CCC[C@H]1C(=O)NCC(=O)N[C@H](C(=O)NCC(=O)N[C@@H](Cc1ccccc1)C(=O)N1CCC[C@H]1C(=O)NCC(=O)N[C@H](C(=O)NCC(N)=O)C(C)C)C(C)C)C(C)C)C(C)C)C(C)C)C(C)C)C(C)C)C(C)C)C(C)C)C(=O)NCC(N)=O,,water,insoluble at this concentration,,water solubility,< 100 µg/mL
O=C(CN1CCN(c2cc3c(cc2F)c(=O)c(C(=O)O)cn3C2CC2)CC1)Nc1ccc(Cl)cc1,,female BALB/c mice,"intravenous, 3.75 mg/kg",,intercompartmental clearance,0.0079 mL/min

# A few entries again:
Structure (SMILES),test,system,setting,how to read,endpoint,result
CC(C)C[C@@H](NC(=O)[C@H](NC(=O)[C@H]1CCCN1)[C@H](C)O)C(=O)N[C@H](Cc1c[nH]cn1)C(=O)N[C@@H](C(=O)N[C@H](Cc1c[nH]cn1)C(=O)N[C@H](CC(N)=O)C(=O)N[C@H](CCCNC(=N)N)C(=O)N[C@H](CCCNC(=N)N)C(=O)N[C@H](CCCNC(=N)N)C(=O)N[C@H](CCCNC(=N)N)C(=O)N[C@H](CCCNC(=N)N)C(N)=O)[C@H](C)O,,Beagle dog,"oral, 20 or 50 mg/kg single, 3 and 30 mg/kg daily, 3 months",,tolerability,not toxic
